Published values of several laboratories.
Each numbered part is a random draw from the data of one study; scales do not carry over between parts. Substitutions count along the parent as printed.

Block 1
Target: Prothrombin, mature alpha-thrombin (F2, Homo sapiens, UniProt P00734)
Method: aptamer microarray, sandwich
Form: DNA with 2'F-ANA
Matrix: in vitro
Concentration: 200 nM
Setting: whole 15-mer aptamer, many near background
Added: Cy3 exosite-II aptamer, 400 nM
Reading: higher = stronger binding
Strand: GGTTGGTGTGGTTGG
| Modification | mean fluorescence intensity [a.u.] |
| --- | --- |
| 2'F-ANA at 1 4 5 6 7 10 11 12 | 92.1 |
| 2'F-ANA at 2 5 7 8 9 13 14 15 | 57.4 |
| 2'F-ANA at 1 2 5 6 7 10 12 14 15 | 47.1 |
| 2'F-ANA at 1 3 4 5 6 14 | 56.9 |
| 2'F-ANA at 1 2 4 6 11 12 13 14 15 | 66.6 |
| 2'F-ANA at 3 7 9 12 | 1610 |
| 2'F-ANA at 1 3 4 9 10 11 | 95.2 |
| 2'F-ANA at 3 5 6 7 9 12 13 14 15 | 57.2 |
| 2'F-ANA at 1 3 4 5 6 8 9 11 12 13 15 | 69.2 |
| 2'F-ANA at 1 3 10 11 13 14 15 | 227 |
| 2'F-ANA at 1 3 4 5 7 10 12 13 14 | 49.7 |
| 2'F-ANA at 1 3 4 6 7 12 13 15 | 228 |
| 2'F-ANA at 1 2 12 14 | 65.3 |
| 2'F-ANA at 1 2 3 4 5 8 11 12 13 14 15 | 52.9 |
| 2'F-ANA at 2 5 6 10 11 | 47.4 |
| 2'F-ANA at 2 3 6 8 9 11 12 13 14 15 | 328 |
| 2'F-ANA at 1 2 5 6 7 9 13 15 | 51.2 |
| 2'F-ANA at 1 3 4 5 10 15 | 57.6 |

Block 2
Target: CEBPA, bZIP domain (human)
Method: DHFR protein complementation
Matrix: yeast
Setting: single substitutions, most at no-binding floor
Baseline: wild-type JUN-FOS pair
Reading: higher = stronger binding
Starting sequence: JUN, bZIP domain (human); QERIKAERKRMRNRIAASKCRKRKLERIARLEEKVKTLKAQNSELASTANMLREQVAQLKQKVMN; partner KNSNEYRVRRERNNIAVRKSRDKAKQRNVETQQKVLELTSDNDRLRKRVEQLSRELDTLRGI
| Substitution | binding fitness [natural log] |
| --- | --- |
| E54R | -1.36 |
| Q55K | -1.38 |
| Q41E | -1.41 |
| K36D | -1.46 |
| L38Q | -1.58 |
| Q41F | -1.56 |
| Q55G | -1.47 |
| A46R | -1.35 |
| N42K | -1.47 |
| K34L | -1.27 |
| Q41T | -1.51 |
| R53D | -1.49 |
| I28Q | -1.34 |
| E32G | -1.44 |
| S47T | -1.46 |
| T48M | -1.42 |

Block 3
Target: CCND3, cyclin fold, Cln2 fusion (human)
Method: yeast growth competition, sequencing
Matrix: yeast
Setting: weak parent motif
Baseline: not given
Reading: higher = stronger binding
Starting sequence: SCAPER docking peptide (human); SNARRSLNFGGST
| Substitution | normalised enrichment score |
| --- | --- |
| R5H | 0.128 |
| L7T | 0.13 |
| S1T | 0.154 |
| G11A | 0.149 |
| S6V | 0.175 |
| F9M | 0.165 |
| N8I | 0.198 |
| R5D | 0.0875 |
| S6M | 0.21 |
| A3E | 0.198 |
| T13F | 0.16 |
| S6I | 0.122 |
| N2L | 0.0961 |
| A3T | 0.188 |
| F9R | 0.128 |
| R4S | 0.0441 |
| G11W | 0.0944 |
| N2D | 0.0464 |
| R4K | 0.1 |
| L7F | 0.0428 |
| G11R | 0.0196 |
| N2H | 0.142 |
| T13C | 0.169 |
| G11Q | 0.12 |
| A3M | 0.155 |

Block 4
Target: Ras GTPase-activating protein-binding protein 1, full length (G3BP1, Homo sapiens, UniProt Q13283)
UniProt Q13283, sequence (whole entry, looked up): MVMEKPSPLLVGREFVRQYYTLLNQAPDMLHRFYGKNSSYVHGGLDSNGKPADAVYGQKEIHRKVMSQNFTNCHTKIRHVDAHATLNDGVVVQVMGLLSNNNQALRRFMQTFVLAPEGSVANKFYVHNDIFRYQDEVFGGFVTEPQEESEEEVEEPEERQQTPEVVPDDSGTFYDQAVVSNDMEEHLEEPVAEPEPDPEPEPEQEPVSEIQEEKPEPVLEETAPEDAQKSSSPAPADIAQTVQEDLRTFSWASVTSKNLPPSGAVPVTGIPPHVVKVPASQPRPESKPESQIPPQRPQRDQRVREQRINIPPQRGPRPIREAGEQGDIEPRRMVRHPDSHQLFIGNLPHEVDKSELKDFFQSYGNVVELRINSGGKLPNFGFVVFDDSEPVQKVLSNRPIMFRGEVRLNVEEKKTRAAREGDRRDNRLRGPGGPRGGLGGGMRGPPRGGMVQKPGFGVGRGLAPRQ
Method: RNA Bind-n-Seq
Form: RNA
Matrix: in vitro
Concentration: 200 nM
Setting: whole 134-nt RNA, ends assumed
Added: 150 mM KCl
Baseline: input library
Reading: higher = stronger binding
Constant ends, left off below: GGGAGUUCUACAGUCCGACGAUC … UGGAAUUCUCGGGUGUCAAGG
| Strand | log2 enrichment |
| --- | --- |
| AGUCCUGUGCUACACAUCGUAUGUACCGAAUCGGGGAAAAAGGGGAAAGGGGUGGGGAAAGUAUUAUGUUACGCCGUUCGGAUCUGCACU | -0.0385 |
| UGUGCUACACAUCGUAUGUACCGAAUCGGGGAAAAAGGGGAAAAAAAGGGGUUUUUUUGGGGAAAGUAUUAUGUUACGCCGUUCGGAUCU | -0.0254 |
| CCUCAAGUCCUGUGCUACACAUCGUAUGUACCGAAUCGGAGGUUUGGUUUGGAAAGUAUUAUGUUACGCCGUUCGGAUCUGCACUUCCAG | 0.146 |
| CCUGUGCUACACAUCGUAUGUACCGAAUCGGGCCCCCCGGGCCCCCCGGGGCCCCCCGGGGAAAGUAUUAUGUUACGCCGUUCGGAUCUG | -0.722 |
| UGGCCCUGGUGGCAUGCGGGGAGGAAGAGGUGGCCUCAUGGAUCGUGGUGGUGCCGGUGGAAUGUUCAGAGGUGGCCGUGGUGGAGACAG | 0.241 |
| CUGUGCUACACAUCGUAUGUACCGAAUCGGGUUUUUUUGGGGUUUUUUUGGGUUUUUUUGGGAAAGUAUUAUGUUACGCCGUUCGGAUCU | -0.796 |
| UGGGAGGUGGAUUUUGUUUAUUUAUUUAGCUCAUUUCCAGGGGUGGGAAUUUUUUUUUAAUAUGUGUCAUGAAUAAAGUUGUUUUUGAAA | 0.0695 |
| CUCAAGUCCUGUGCUACACAUCGUAUGUACCGAAUCGGGAGGGUUUGGGAGGGAAAGUAUUAUGUUACGCCGUUCGGAUCUGCACUUCCA | 1.29 |
| ACCGUGCAGGUGGGCAUCUUUGGGAAGUGGGGCAAGGGGGGGAUAGGGAGGGGGGUAACACUUUGGGAACAGGUGGUCCCAGGUCGUUUC | 1.23 |
| UCCUGUGCUACACAUCGUAUGUACCGAAUCGGGGAAAAAGGGGAAAAAAAGGGGUGGGGAAAGUAUUAUGUUACGCCGUUCGGAUCUGCA | 0.657 |

Block 5
Target: Histone acetyltransferase KAT6A, winged helix 1, GST fusion (KAT6A, Homo sapiens, UniProt Q92794, residues 1-85)
Method: protein binding microarray
Form: double-stranded DNA, one strand shown
Matrix: in vitro
Concentration: not given
Setting: 8-mer, flanks averaged, mean of 2 arrays, mostly near background
Baseline: not given
Reading: higher = stronger binding
Target sequence (chain): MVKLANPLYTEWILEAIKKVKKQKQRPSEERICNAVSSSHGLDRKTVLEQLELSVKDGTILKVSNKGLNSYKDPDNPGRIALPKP
| Strand | E-score |
| --- | --- |
| GCCGCTTA | 0.339 |
| GCACATGA | -0.0753 |
| GGAAAACC | 0.0268 |
| CGCTTACC | 0.268 |
| AGGCGGAA | 0.116 |
| AAGATCTG | -0.104 |
| CCCTAAGC | -0.0367 |
| ACCGTCGT | 0.067 |
| AAGCTCGC | 0.0903 |
| ATCTGCGA | -0.0712 |
| CTCTTTCC | -0.0205 |
| AATAGGGT | -0.113 |
| ATCGATGG | -0.179 |
| CTGTTGGC | -0.158 |
| GACCTGAA | -0.0527 |
| AGTAGCAC | -0.103 |
| CCCCGGCG | 0.439 |
| ATAGACAG | -0.151 |
| GTCGGCTA | 0.303 |
| GTCTTATA | -0.117 |
| ACGAGGTA | -0.0648 |
| GCGTGATA | 0.16 |
| TTACTAAA | -0.0449 |
| CATCGAAC | -0.0494 |
| GTTTCCGA | 0.0915 |

Some of these lines once more (block 5):
| Strand | E-score |
| --- | --- |
| ATCGATGG | -0.179 |
| CTGTTGGC | -0.158 |
| GACCTGAA | -0.0527 |
| AGTAGCAC | -0.103 |
| CCCCGGCG | 0.439 |
| ATAGACAG | -0.151 |
| GTCGGCTA | 0.303 |
